Published values of several laboratories.
± marks the error that the study gave.
Sequence of UniProt P56817 (whole entry, looked up): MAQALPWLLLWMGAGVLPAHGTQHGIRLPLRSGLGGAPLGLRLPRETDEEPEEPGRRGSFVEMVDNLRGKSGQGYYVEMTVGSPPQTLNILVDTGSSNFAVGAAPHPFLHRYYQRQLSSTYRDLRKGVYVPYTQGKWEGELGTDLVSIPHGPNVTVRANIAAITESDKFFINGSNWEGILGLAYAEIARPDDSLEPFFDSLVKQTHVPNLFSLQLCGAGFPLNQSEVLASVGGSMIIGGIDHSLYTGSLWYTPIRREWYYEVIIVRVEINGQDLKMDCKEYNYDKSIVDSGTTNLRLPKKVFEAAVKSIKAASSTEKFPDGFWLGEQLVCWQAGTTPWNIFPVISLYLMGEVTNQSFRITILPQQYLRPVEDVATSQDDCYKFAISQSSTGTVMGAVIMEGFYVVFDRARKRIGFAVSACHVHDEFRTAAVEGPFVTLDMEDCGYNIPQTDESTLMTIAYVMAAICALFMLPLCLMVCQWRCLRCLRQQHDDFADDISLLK
Sequence of UniProt Q06187 (whole entry, looked up): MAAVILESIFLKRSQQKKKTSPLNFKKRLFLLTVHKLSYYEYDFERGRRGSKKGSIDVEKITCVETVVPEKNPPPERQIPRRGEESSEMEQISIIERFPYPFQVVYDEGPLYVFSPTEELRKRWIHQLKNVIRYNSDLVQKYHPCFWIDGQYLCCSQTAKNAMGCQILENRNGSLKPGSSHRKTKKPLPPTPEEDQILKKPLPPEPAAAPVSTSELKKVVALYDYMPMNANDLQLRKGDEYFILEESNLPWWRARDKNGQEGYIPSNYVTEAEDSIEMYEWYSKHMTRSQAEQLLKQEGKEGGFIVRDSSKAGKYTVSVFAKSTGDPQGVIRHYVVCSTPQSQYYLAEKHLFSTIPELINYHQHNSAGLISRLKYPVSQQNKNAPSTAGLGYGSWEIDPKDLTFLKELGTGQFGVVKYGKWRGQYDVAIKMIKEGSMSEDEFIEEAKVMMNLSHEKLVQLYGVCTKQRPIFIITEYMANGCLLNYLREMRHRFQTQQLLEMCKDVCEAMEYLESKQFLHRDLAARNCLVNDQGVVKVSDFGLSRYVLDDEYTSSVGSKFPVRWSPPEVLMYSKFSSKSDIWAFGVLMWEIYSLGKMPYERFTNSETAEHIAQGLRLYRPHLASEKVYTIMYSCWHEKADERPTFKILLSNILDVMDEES

CC(=O)c1c(C)c2cnc(Nc3ccc(C4CCN(CCS(C)(=O)=O)CC4)cn3)nc2n(C2CCCC2)c1=O  AUC(0-t) (human patients, plasma; oral, 75 mg twice daily, day 1 single dose, with: fulvestrant): 866 ng·h/mL
C[C@H]1CN(c2n[nH]c3nc(N[C@H]4CC[C@H](NS(=O)(=O)CCC(F)(F)F)CC4)ncc23)CCO1  remaining binding (Large ribosomal subunit protein uL5 (Homo sapiens, UniProt P62913); Kinobeads competition, item: RPL11; 20 µM, unit not given; reference: vehicle): 1.17
CNC(=O)c1cc(Oc2ccc(NC(=O)Nc3cc(C(C)(C)C)nn3-c3ccc4ncccc4c3)c(F)c2)ccn1  related SAE (optic nerve disorder, NCI CTC v3.0; human patients; oral, 150 mg twice daily, tablet, dose at onset): 3%
CC[C@H](C)[C@H](NC(=O)[C@H](CC(C)C)NC(=O)[C@H](Cc1c[nH]c2ccccc12)NC(=O)[C@H](CCC(N)=O)NC(=O)[C@@H](NC(=O)[C@H](Cc1ccccc1)NC(=O)[C@H](C)NC(=O)[C@H](CCCCNC(=O)COCCOCCNC(=O)COCCOCCNC(=O)CC[C@H](NC(=O)CCCCCCCCCCCCCCCCCCC(=O)O)C(=O)O)NC(=O)[C@H](CCC(N)=O)NC(=O)[C@H](C)NC(=O)[C@@H](NC(=O)[C@H](CCCCN)NC(=O)[C@H](CC(=O)O)NC(=O)[C@H](CC(C)C)NC(=O)C(C)(C)NC(=O)[C@@H](NC(=O)[C@H](CO)NC(=O)[C@H](Cc1ccc(O)cc1)NC(=O)[C@H](CC(=O)O)NC(=O)[C@H](CO)NC(=O)[C@@H](NC(=O)[C@H](Cc1ccccc1)NC(=O)[C@@H](NC(=O)CNC(=O)[C@H](CCC(=O)O)NC(=O)C(C)(C)NC(=O)[C@@H](N)Cc1ccc(O)cc1)[C@@H](C)O)[C@@H](C)O)[C@@H](C)CC)[C@@H](C)CC)C(C)C)C(=O)N[C@@H](C)C(=O)NCC(=O)NCC(=O)N1CCC[C@H]1C(=O)N[C@@H](CO)C(=O)N[C@@H](CO)C(=O)NCC(=O)N[C@@H](C)C(=O)N1CCC[C@H]1C(=O)N1CCC[C@H]1C(=O)N1CCC[C@H]1C(=O)N[C@@H](CO)C(N)=O  median tmax (human, plasma; 5 mg, week 8): 48 h
C[C@]1(O)C[C@@](N)(c2ccc(-c3nc4n(c3-c3ccccc3)COc3ccncc3-4)cc2)C1  patients with TEAE (human, advanced or metastatic solid tumours; 20 mg once daily, phase I dose escalation): 100%
COc1ccc(N2C(=O)N(c3c(C)cccc3Cl)Cc3cnc(Nc4ccc(C5CCN(C)CC5)cc4OC)nc32)nc1  inhibition (BTK (Homo sapiens, UniProt Q06187); kinase activity; 0.5 µM): 95%
CC[C@H](C)[C@@H]1NC(=O)[C@@H]2CCCN2C(=O)[C@H](CC(C)C)NC(=O)[C@H](CC(C)C)NC(=O)CNC(=O)[C@@H](NC(=O)[C@@H](NC(=O)[C@H](CC(=O)O)NC(=O)CNC(=O)[C@@H](NC(=O)[C@H](C)NC(=O)CNC(=O)[C@H](CCCCN)NC(=O)[C@H](CC(C)C)NC(=O)[C@H](CC(C)C)NC(=O)[C@H](CCCCN)NC(=O)CNC(=O)[C@@H](NC(=O)[C@@H](N)CC(C)C)C(C)C)C(C)C)C(C)C)CSSC[C@@H](C(=O)O)NC1=O  log2 fold change (RNA-seq, item: Ccdc61; mouse, traumatic brain injury model, frontal cortex and hippocampus; dose not given; reference: TBI alone): -0.756
COc1cc(Nc2ncc(F)c(Nc3ccc4c(n3)NC(=O)C(C)(C)O4)n2)cc(OC)c1OC  IC50 (Beta-secretase 1 (BACE1, Homo sapiens, UniProt P56817); β-Secretase): > 10 µM
COc1cc(-c2[o+]c3cc(O)cc(O)c3cc2O[C@@H]2O[C@H](CO)[C@@H](O)[C@H](O)[C@H]2O)cc(OC)c1O  hue angle (CIELAB from visible spectra; aqueous buffer; 50 µM, pH 7, ±BSA 600 µM or lysozyme 1000 µM): 327.5 ± 0.39 degrees
COc1c(CCC[P+](c2ccccc2)(c2ccccc2)c2ccccc2)cc2c(c1OC)OCO2.[I-]  LC50 (EKVX; SRB): > -4 log M
C=CC(=O)N1CC[C@H](n2nc(C#Cc3cc(OC)cc(OC)c3)c3c(N)ncnc32)C1  adverse drug reaction incidence (patients with advanced solid tumours; oral, dose not given, Dysgeusia, any grade, QD, all patients): 14%
COc1cc(C(=O)NC2CCN(C)CC2)c(F)cc1Nc1ncc(C(F)(F)F)c(Oc2cccc3c2C(=O)N(C)C3)n1  mean residence time (human patients, plasma; oral, 300 mg single dose, geometric mean): 26.9 h
COc1ncnn2ccc(-c3cnc4nc(C)n(Cc5nnc([C@@H](C)F)o5)c4c3)c12  patients with fatigue (human; oral, dose not given, grade 4): 0%
CC(C)(O)c1cc(Nc2cc(Oc3cn(C4CC4)nc3C3CCOCC3)ccn2)ccn1  treatment-related adverse events (Headache; patients with advanced cancer, Japanese cohort; oral, dose not given, grade ≥3): 0%
C[C@@H](O)[C@@H](CO)NC(=O)[C@@H](CCCNC(=N)N)NC(=O)[C@@H]1CCCN1C(=O)[C@@H]1CSSC[C@H](NC(=O)[C@H](Cc2ccccc2)NC(=O)CN2CCN(CC(=O)O)CCN(CC(=O)O)CCN(CC(=O)O)CC2)C(=O)N[C@@H](Cc2ccc(O)cc2)C(=O)N[C@@H](Cc2ccccc2)C(=O)N[C@@H](CCC(N)=O)C(=O)N[C@@H](CC(N)=O)C(=O)N1 [gallium-68 labelled]  tissue uptake (Wistar rat, healthy, Pituitary gland; intravenous, 8 MBq, 120 min): 0.2 %ID/g
COc1cc2c(Oc3ccc4[nH]c(C)cc4c3F)ccnc2cc1OCC1(N)CC1  grade 3 bone pain (paediatric refractory sarcoma patients; 10 mg): 0%
O=[N+]([O-])NC1=NCCN1Cc1ccc(Cl)nc1  dose fraction in skim milk (whole cow milk; 200 nM nominal): 96.3%
CCC[C@H]1CC[C@H](c2ccc(-c3ccc(F)cc3)cc2)CC1  median fetal accumulation (rat, fetus; 5000 ng/mL in perfusate, high dose, mixture of 21 LCMs): 0.81 ng/g
CC(C)(C)c1cc(-n2nc3ccccc3n2)c(O)c(C(C)(C)C)c1  mean daily dermal uptake (exposure assessment; human, age 16-21 years; spray sunscreen): 3.66 ng/kg body weight/day
C[C@H]1CN(C(=O)CC#N)[C@]12CCN(c1ncnc3[nH]ccc13)C2  NOAEL (dog male and female; oral, 3 months, repeated-dose toxicity study): 3 mg/kg
CC[C@H](C)[C@H](NC(=O)[C@H](Cc1ccccc1)NC(=O)[C@H](CCC(=O)O)NC(=O)[C@H](CCCNC(=N)N)NC(=O)[C@H](C)NC(=O)[C@H](C)NC(=O)[C@H](CCC(N)=O)NC(=O)[C@H](CCC(=O)O)NC(=O)[C@H](CCC(=O)O)NC(=O)[C@H](CC(C)C)NC(=O)[C@H](Cc1ccc(O)cc1)NC(=O)[C@H](CO)NC(=O)[C@H](CO)NC(=O)[C@@H](NC(=O)[C@H](CC(=O)O)NC(=O)[C@H](CO)NC(=O)[C@@H](NC(=O)[C@H](Cc1ccccc1)NC(=O)[C@@H](NC(=O)CNC(=O)[C@H](CCC(=O)O)NC(=O)[C@H](C)NC(=O)CCc1c[nH]cn1)[C@@H](C)O)[C@@H](C)O)C(C)C)C(=O)N[C@@H](C)C(=O)N[C@@H](Cc1c[nH]c2ccccc12)C(=O)N[C@@H](CC(C)C)C(=O)N[C@H](C(=O)N[C@@H](CCCNC(=N)N)C(=O)NCC(=O)N[C@@H](CCCNC(=N)N)C(=O)N[C@@H](CCCCNC(=O)COCCOCCNC(=O)COCCOCCNC(=O)CC[C@H](NC(=O)CCCCCCCCCCCCCCCCC(=O)O)C(=O)O)C(=O)NCC(=O)NCC(=O)N[C@@H](CO)C(=O)N[C@@H](CCCCNc1c(NCCCCCN(O)C(=O)CCC(=O)NCCCCCN(O)C(=O)CCC(=O)NCCCCCN(O)C(C)=O)c(=O)c1=O)C(=O)O)C(C)C [zirconium-89 labelled]  tissue uptake (rat, liver; sc, 3 nmol/kg, 4 h, ex vivo): 0.37 %ID/g

A few entries again:
CC(C)(O)c1cc(Nc2cc(Oc3cn(C4CC4)nc3C3CCOCC3)ccn2)ccn1  treatment-related adverse events (Headache; patients with advanced cancer, Japanese cohort; oral, dose not given, grade ≥3): 0%
CNC(=O)c1cc(Oc2ccc(NC(=O)Nc3cc(C(C)(C)C)nn3-c3ccc4ncccc4c3)c(F)c2)ccn1  related SAE (optic nerve disorder, NCI CTC v3.0; human patients; oral, 150 mg twice daily, tablet, dose at onset): 3%
COc1c(CCC[P+](c2ccccc2)(c2ccccc2)c2ccccc2)cc2c(c1OC)OCO2.[I-]  LC50 (EKVX; SRB): > -4 log M
C=CC(=O)N1CC[C@H](n2nc(C#Cc3cc(OC)cc(OC)c3)c3c(N)ncnc32)C1  adverse drug reaction incidence (patients with advanced solid tumours; oral, dose not given, Dysgeusia, any grade, QD, all patients): 14%
